Results collected from several papers.
A part holds a random share of what one study measured.

Study 1
Target: Prothrombin, mature alpha-thrombin (F2, Homo sapiens, UniProt P00734)
Method: aptamer microarray, sandwich
Form: DNA with 2'F-ANA
Matrix: in vitro
Tested at: 200 nM
Notes: whole 15-mer aptamer, many near background
Together with: Cy3 exosite-II aptamer, 400 nM
Reading: higher = stronger binding
Oligonucleotide: GGTTGGTGTGGTTGG
| Modification | mean fluorescence intensity |
| --- | --- |
| 2'F-ANA at 1 3 4 5 7 8 10 12 14 15 | 47.7 a.u. |
| 2'F-ANA at 3 4 5 7 10 11 12 | 59.7 a.u. |
| 2'F-ANA at 2 3 4 5 6 7 11 14 15 | 69.6 a.u. |
| 2'F-ANA at 1 3 7 9 10 11 12 15 | 108 a.u. |
| 2'F-ANA at 3 5 8 10 12 14 | 72.5 a.u. |
| 2'F-ANA at 2 4 8 10 11 12 | 124 a.u. |
| 2'F-ANA at 3 4 6 7 13 14 15 | 318 a.u. |
| 2'F-ANA at 1 6 9 12 13 15 | 272 a.u. |
| 2'F-ANA at 2 4 6 7 9 12 13 14 | 90.3 a.u. |
| 2'F-ANA at 1 4 6 7 8 10 12 13 | 51.7 a.u. |
| 2'F-ANA at 2 3 5 8 15 | 139 a.u. |
| 2'F-ANA at 1 3 6 8 9 10 13 14 15 | 82.2 a.u. |
| 2'F-ANA at 1 2 3 4 8 10 12 13 14 15 | 54 a.u. |
| 2'F-ANA at 1 2 3 6 7 8 10 12 13 | 87.2 a.u. |
| 2'F-ANA at 1 6 7 14 | 63.6 a.u. |
| 2'F-ANA at 1 4 9 10 11 12 | 65.7 a.u. |
| 2'F-ANA at 1 3 5 6 9 10 13 15 | 45.4 a.u. |
| 2'F-ANA at 1 3 4 5 12 14 | 70 a.u. |
| 2'F-ANA at 4 9 10 12 14 15 | 61.2 a.u. |
| 2'F-ANA at 1 3 4 6 9 11 12 13 14 | 68.9 a.u. |
| 2'F-ANA at 2 3 4 9 13 14 15 | 257 a.u. |
| 2'F-ANA at 1 5 7 8 9 11 13 15 | 53.1 a.u. |

Study 2
Target: Interferon regulatory factor 7, full length, phosphomimetic (IRF7, Homo sapiens, UniProt Q92985, residues 1-503, S101K/S471D/S472D/S475D/S476D/S477D/S483D/S484D/S487D)
Sequence of UniProt Q92985 (whole entry, unmodified, looked up): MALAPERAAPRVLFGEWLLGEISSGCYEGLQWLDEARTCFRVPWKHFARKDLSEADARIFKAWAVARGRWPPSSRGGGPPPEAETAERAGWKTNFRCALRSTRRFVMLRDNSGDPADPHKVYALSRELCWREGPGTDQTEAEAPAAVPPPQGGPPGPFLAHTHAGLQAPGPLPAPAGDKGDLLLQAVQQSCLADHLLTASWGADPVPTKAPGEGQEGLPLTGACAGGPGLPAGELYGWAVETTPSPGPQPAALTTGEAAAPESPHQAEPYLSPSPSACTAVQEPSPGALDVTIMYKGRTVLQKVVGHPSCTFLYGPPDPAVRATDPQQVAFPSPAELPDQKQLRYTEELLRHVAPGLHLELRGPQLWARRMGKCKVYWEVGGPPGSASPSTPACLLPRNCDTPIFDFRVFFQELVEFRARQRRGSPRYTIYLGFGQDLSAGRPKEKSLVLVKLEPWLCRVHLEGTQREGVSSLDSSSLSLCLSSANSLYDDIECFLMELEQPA
Method: protein-binding microarray
Form: double-stranded DNA, one strand shown
Matrix: in vitro
Tested at: 250 nM
Notes: 60-bp whole probe
Together with: salmon DNA 0.4 mg/ml
Relative to: random background probes
Reading: higher = stronger binding
All sequences stand within: GCCTAGCAC … GTCTTGATTCGCTTGACGCTGCTG
| Oligonucleotide | log fluorescence |
| --- | --- |
| TCACCTCTCCATACTTCACTGTGCTAG | 0.307 z-score |
| TCAGATCTCAGTATCGATTAGTGCTAG | 1.05 z-score |
| GACGAACGGAGTATCGAGACGTGCTAG | -0.164 z-score |
| TTAGAACTGAGGTTCGATTAGTGCTAG | 0.827 z-score |
| GACGGTTTCCTACTGCTGATGTGCTAG | 1.46 z-score |
| TCATTTCTCCTTTGTAAACTGTGCTAG | 2.94 z-score |
| GCTTCCTCCTACCCGACCCCGTGCTAG | 2.07 z-score |
| TTAGATTTCGGGTTTCGACTAGTGCTA | 4.29 z-score |
| TCACCACTTTCTTTTGCACTGTGCTAG | 0.738 z-score |
| TTAGAACTGAGTATGGATTAGTGCTAG | -0.105 z-score |
| GACGGTAGCGGGTTTCGGGACGTGCTA | 1.4 z-score |
| GACGGTTCCCTGTTCCTGACGTGCTAG | 1.4 z-score |
| TTAGGTATCTACTTTCGGTTAGTGCTA | 2.84 z-score |
| GACTGTTTCGGGACTGGGGACGTGCTA | 1.62 z-score |
| GACTATTCCAGTTTCGAGACGTGCTAG | 5.45 z-score |
| GACCATTTCAGTCTCGAGACGTGCTAG | 1.88 z-score |
| TTAGGTATAGGTTTCGGTTAGTGCTAG | 7.65 z-score |

Study 3
Target: RNA binding protein fox-1 homolog 2, RRM domain, GST-SBP tag (RBFOX2, Homo sapiens, UniProt O43251-10, residues 100-194)
Method: RNA Bind-n-Seq
Form: RNA
Matrix: in vitro
Tested at: 365 nM
Notes: natural RNA segment, single round, ends assumed
Relative to: no-protein control
Reading: higher = stronger binding
All sequences stand within: GGGAGUUCUACAGUCCGACGAUC … UGGAAUUCUCGGGUGCCAA
Residues (chain): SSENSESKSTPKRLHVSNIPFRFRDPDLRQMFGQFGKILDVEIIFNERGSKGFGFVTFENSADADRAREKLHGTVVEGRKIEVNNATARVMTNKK
| Oligonucleotide | RBNS enrichment (R) |
| --- | --- |
| UCCCCUUGUGGCUAAACGAAAGCAAAUGUCCGGAAGUCUUGAGAAGCUGUGUCGUGUUCCCUGUGGAAAUGAGUUGAUGUGUGCCAGUGCUGAGCACCUGGUAUUGAGGU | 3.09 |
| GGUCCCUUUUGUGUCUCCCCCGCCAUUCAAGGACUCCUCUCUUUCUUCACCAAGAAGCACAGAAUUCUGCUGGGCCUUUGCUUGUUUAUUUUGUUUCCCGACUCUUCUCU | 0.8 |
| UUUGGAAUAUUUUAUCCUGUAUUCUUGUUUGAAUCCUUCCUCUAUUUAAGACAUAGCCAUGGAGCCCACAUGUUUAUGGAAUAGUCUACCCUUUGCCUGCAGGUCAGUUG | 1.81 |
| GUGUCUGCCUCUGGCUGCUGGGAGAAGCUGUUUUUCAGUUUCAGAAGCAGGCAGGACAAAGGCCAGGACUGUGGUUUGGGAGGCAUUUGGCCCUGGAAGGUCCUGGCACA | 0.71 |
| CAUCCAUUCUGGAAACACCUGUAGGCAGAGGCUGCCGAGACAGACCCUCUGCCGCUGCUUCCAGGCUGGGCAGCACAAGGCCUUGCCUGGCCUGAUGAUGGUGGGUGGGU | 0.313 |
| CUCAACAGACAAUUAGAAAAAAGUCCACACUUGAAGCCUAAAUUUGUGCUUUUUAAGAAUAUUUUUAGACUAUUUCUUUUUAUAGGGGCUUUGCUGAAUUCUAACAUUAA | 0.429 |
| UGGCUAGCAGCUAUCAGUAUUAGCGAGGUGUCUUGCCGAUAUCAGAGUCAGUGUGUCAUUUCAGUUUAACUGGAUGAACUGUCAAAUAAAGAAAUGCAGAAUGAAAACAA | 0.645 |
| GGCCAUUUCUGUGGAAGGGGUAGAGGUAGGUGGCACAGAAGAUGGGGCUUUGCGCUUGUAAAUACUGAUAGCACUGGCUUCCUCCAAAGUCCCAACGUUCUAGCACCCCC | 0.42 |
| GGGCAAAGAUGCCCAUGACGACAUAGUCACCAGUGAAGUGGAUUUUACCUCAGAAGCAGUGACAGCCGCAGAAACCACAGAGGCGCUCCGCGCUGAAGAACUUACCGAAG | 0.269 |
| AAAAGAACAACAAAAAAACCCAGCACAAAACCGACGAUGGAGUUUGUUUCUUUGAUUUCUUUGCCAAUGGCAAGAAGAUGAGAUGCCCUCAGCACUGAGGAUUCUUGCCC | 0.274 |
| AUAGAUAGUUUAGUCAACAUCCCCAUCUUGUGUCAAUCUGGACUCAGAGGAAGGAGUCAGCAUCCUGAGCAUCCAGAAGAUUCAUGGAACCUGAAGUUGCCUCUGGAGCC | 0.433 |
| UGUCACCUUCUCAUUUGCUGUGUGACUUUGGCCCACUCACAUUCUCUUUGGGCCUCAGUUUUAUCAUUUAUACAAGGAGGGCUUUUCUAGCUGUAACAAUCUGUGAGGAU | 0.241 |

Study 4
Target: RING finger protein unkempt homolog, zinc fingers 1-6, SBP tag (UNK, Homo sapiens, UniProt Q9C0B0, residues 30-357)
Sequence of UniProt Q9C0B0 (30-357, looked up): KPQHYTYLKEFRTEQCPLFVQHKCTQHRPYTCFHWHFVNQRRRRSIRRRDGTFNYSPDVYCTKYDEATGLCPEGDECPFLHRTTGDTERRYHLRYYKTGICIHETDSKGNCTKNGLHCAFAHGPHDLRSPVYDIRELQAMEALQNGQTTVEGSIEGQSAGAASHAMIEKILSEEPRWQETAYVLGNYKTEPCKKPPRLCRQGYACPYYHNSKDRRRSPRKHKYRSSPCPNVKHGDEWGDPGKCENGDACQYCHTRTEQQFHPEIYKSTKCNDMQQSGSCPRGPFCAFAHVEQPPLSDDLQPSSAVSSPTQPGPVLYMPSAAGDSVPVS
Method: RNA Bind-n-Seq
Form: RNA
Matrix: in vitro
Tested at: 100 nM
Notes: RNA with constant flanks, vertebrate orthologous sites, ends assumed
Relative to: input RNA pool
Reading: higher = stronger binding
All sequences stand within: GGGAGUUCUACAGUCCGACGAUC … CAACAGAGGAUUGAGCAUCA
| Oligonucleotide | bound/input enrichment |
| --- | --- |
| AUUUAGAAUGUGUUUGGUUAUAGUUAGUGGUCUCAUUCCCUCGUUCCUUUUUCAUUAACGUAGCUGUAAUAGUAUGAGUGAAGAGGAGGCUUGUGCCAGUAGACAUUGUUACUGCAUCAG | 0.846 ratio |
| UUAUUUUCGAUCUCUUCCUCCCCUUCCUGAUUUUAAAAGCCCUUCUUUUUUUAGGCAUAUGUAGUAACAUUAGCAAAAAAGAUUUUAAUUUGGGCAACUUUGAUUCUUAAAACAGAAAAC | 0.329 ratio |
| UAAUGUGUUUUUAUUUAUUGAGAAUAGUUUUGUGCUAAAGACUGUGCUAGACUUAAAAAUUAGUGGAUCACUUCCACUUUGUUGUGUUGCUUUUGUUAUUGAAAAUAAAUAUAACUUUGU | 0.337 ratio |
| CACAUCUGGUGAUAUUUGGCCUGGCCUCUCAGCUUAUGAUAAUAGUCCUAGAUCACCUCAUAGUCCUUCACCGAUUGCUACACCACCUAGUCAGAGUUCAUCUUGCUCUGAUGCCCCCAU | 0.93 ratio |
| UUGAAGCUUUGUGUUUGGCUGCACCUGCAUAAGCUGCUACAAAUAGAAUAAAGAAUUUCAUAGCCUGUAUCUAUCGUUUAGAUGCAUGGAAAAUGGGCUUUGCACACGGUGGGUUUGGAG | 1.54 ratio |
| GUGCUCGCCUUAGAGCAGUUCCCCCACCCACCCACCCCUUUUUUCCCUUGAUUUUGGUUUCAGGGCUGGGUGGGUGUGGCACACACUCUGAGGCCAGAGCUGUUUGGUUCGCCUUGUGCU | 0.183 ratio |
| AUUUAAAAUGUAUUUAGUUACACUUAAUGACUUCGUUCCUGAGUUCUUUUUUCAUCGAAGUAGCUUUCAUUUUUAUAAUUGCAGUUUUAAUAAUAUGAAUAAGUAGAAAGCUUGUGCCAG | 0.228 ratio |
| UUACAGUCAUUGAUGGACUCUAUUUUUUUAUUAUUACUUGGACCUUGGUCGUUUUUAUACUAGCAAAAUGUCUUGUUUUAAUUUGUGGUUUUUUUUUUUGGUGGGGGGGAGUGAACUUGC | 2.73 ratio |
| AAUCAGUAGAAUUACAUAAUACUAAAGUUGCAGUUGAAAGGAUAUCCAAGUAUGUGUUGGUAGUUACUAAAAGAAUUAUAGCUGUUAUUGCCUUGUAUUUAUAGCCCUGUUUCAGGUUUC | 0.986 ratio |
| GGGACGCUUUGAUGUAAAAAUUGAAGUUAAGAGCUGAUCACAAGCACAAAUCUUUCUCACUAGCCAUUAAAAAGUUAAAAAACGAUACAAAAACAAAAAACCUACUAGUCUUGAACAAAC | 1.39 ratio |
| ACAAACAACGUAGGAUAUUUGUGCUAUUUAAAAGUGAGCUUUGCUUUUUCUGCUUUAAAGAGAAUACUUUUAUAUUGGGGUGCUUUAAAAGUGUGAAGGUGUGUGCUCCCAUAAUCCCAG | 0.472 ratio |

Repeated from above (study 1):
| Modification | mean fluorescence intensity |
| --- | --- |
| 2'F-ANA at 1 3 7 9 10 11 12 15 | 108 a.u. |
| 2'F-ANA at 3 4 5 7 10 11 12 | 59.7 a.u. |
| 2'F-ANA at 1 3 4 5 12 14 | 70 a.u. |
| 2'F-ANA at 1 2 3 4 8 10 12 13 14 15 | 54 a.u. |
| 2'F-ANA at 2 3 4 9 13 14 15 | 257 a.u. |
| 2'F-ANA at 2 3 4 5 6 7 11 14 15 | 69.6 a.u. |
| 2'F-ANA at 1 6 9 12 13 15 | 272 a.u. |
| 2'F-ANA at 3 5 8 10 12 14 | 72.5 a.u. |
